Experimental data of several laboratories.
Each numbered part is a random draw from the data of one study; scales do not carry over between parts.

Study 1 — method: universal PBM; molecule type: double-stranded DNA, one strand shown; medium: in vitro; concentration: not given; reading: higher = stronger binding
Target: Sal-like protein 4, full length isoform B (SALL4, Homo sapiens, UniProt Q9UJQ4-2, residues 1-616)
Setting: 8-mer, flanks averaged, mean of replicates
Target sequence (chain): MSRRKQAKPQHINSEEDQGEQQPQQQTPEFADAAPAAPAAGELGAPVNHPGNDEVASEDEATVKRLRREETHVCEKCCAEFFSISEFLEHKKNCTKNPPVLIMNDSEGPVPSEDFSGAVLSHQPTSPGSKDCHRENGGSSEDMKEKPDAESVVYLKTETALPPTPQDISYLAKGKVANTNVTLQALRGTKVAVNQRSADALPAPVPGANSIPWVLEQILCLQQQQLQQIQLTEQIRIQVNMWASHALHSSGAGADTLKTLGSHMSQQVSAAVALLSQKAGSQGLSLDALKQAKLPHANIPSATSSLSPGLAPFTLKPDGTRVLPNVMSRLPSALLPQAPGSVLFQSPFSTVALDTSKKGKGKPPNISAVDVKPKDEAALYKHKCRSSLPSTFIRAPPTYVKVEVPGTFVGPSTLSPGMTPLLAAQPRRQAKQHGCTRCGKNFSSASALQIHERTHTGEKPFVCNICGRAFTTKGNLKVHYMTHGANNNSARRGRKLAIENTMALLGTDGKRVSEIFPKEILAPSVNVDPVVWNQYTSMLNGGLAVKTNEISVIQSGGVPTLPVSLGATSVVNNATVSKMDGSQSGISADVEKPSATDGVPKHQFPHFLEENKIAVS
| Strand | E-score |
| --- | --- |
| AAATGTTA | 0.291 |
| ACAACTCC | -0.148 |
| CACTCAAC | 0.127 |
| CTGTCGAC | -0.0629 |
| ATGGAAAG | 0.137 |
| CCCCAACG | -0.204 |
| ACTTGAAG | 0.129 |
| AGATTGTA | 0.224 |
| CTTCCTCA | -0.0546 |
| CCAGCTAC | -0.172 |
| AATGGAGT | 0.106 |
| CCAGAATC | -0.12 |
| ACATCTCT | -0.0005 |
| ATTACTGC | 0.197 |
| CCAACCTC | -0.0545 |
| GGCTTTTA | 0.0193 |
| AGAGGTAG | -0.0314 |
| ATGACCAA | 0.2 |
| CACATGGC | -0.0869 |
| CATTGCAA | 0.111 |
| TCGGGAGA | -0.139 |
| GAAAGCCA | -0.187 |
| CGCGTAGC | -0.241 |
| AACCCCGG | -0.33 |

Study 2 — method: protein-binding microarray; molecule type: double-stranded DNA, one strand shown; medium: in vitro; concentration: not given; reading: higher = stronger binding
Target: Max dimerization protein 1, bHLH-zipper, MAX partner unstated (MXD1, Homo sapiens, UniProt Q05195, residues 56-136)
Setting: k-mer, scored over probes, only values ≥0.25
Target sequence (chain): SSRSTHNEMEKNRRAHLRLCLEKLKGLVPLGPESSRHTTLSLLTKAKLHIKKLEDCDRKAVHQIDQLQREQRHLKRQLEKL
| Strand | E-score |
| --- | --- |
| GACCATGC | 0.444 |
| ATGTGCGG | 0.331 |
| AACGCATG | 0.442 |
| ACGTGCAA | 0.37 |
| ACCACGGG | 0.29 |
| CACGTCCC | 0.257 |
| AGCATGAC | 0.365 |
| CATGCAAC | 0.37 |
| CATGGAGC | 0.262 |
| CATGGGGG | 0.392 |
| GCGTGTCC | 0.356 |
| CATGCATC | 0.306 |
| ATACACGC | 0.31 |
| AAGCGTGT | 0.358 |
| ACGACCCA | 0.266 |
| CATATGGC | 0.331 |
| CGTGGGCA | 0.254 |
| CATGTTAA | 0.298 |
| GTGGTTCA | 0.304 |

Study 3 — method: protein-binding microarray; molecule type: double-stranded DNA, one strand shown; medium: in vitro; concentration: 250 nM; setting: 60-bp whole probe; with: salmon DNA 0.4 mg/ml; reference: random background probes; reading: higher = stronger binding; constant ends, left off below: GCCTAGCAC … GTCTTGATTCGCTTGACGCTGCTG
Target: Interferon regulatory factor 7, full length, phosphomimetic (IRF7, Homo sapiens, UniProt Q92985, residues 1-503, S101K/S471D/S472D/S475D/S476D/S477D/S483D/S484D/S487D)
Construct (chain): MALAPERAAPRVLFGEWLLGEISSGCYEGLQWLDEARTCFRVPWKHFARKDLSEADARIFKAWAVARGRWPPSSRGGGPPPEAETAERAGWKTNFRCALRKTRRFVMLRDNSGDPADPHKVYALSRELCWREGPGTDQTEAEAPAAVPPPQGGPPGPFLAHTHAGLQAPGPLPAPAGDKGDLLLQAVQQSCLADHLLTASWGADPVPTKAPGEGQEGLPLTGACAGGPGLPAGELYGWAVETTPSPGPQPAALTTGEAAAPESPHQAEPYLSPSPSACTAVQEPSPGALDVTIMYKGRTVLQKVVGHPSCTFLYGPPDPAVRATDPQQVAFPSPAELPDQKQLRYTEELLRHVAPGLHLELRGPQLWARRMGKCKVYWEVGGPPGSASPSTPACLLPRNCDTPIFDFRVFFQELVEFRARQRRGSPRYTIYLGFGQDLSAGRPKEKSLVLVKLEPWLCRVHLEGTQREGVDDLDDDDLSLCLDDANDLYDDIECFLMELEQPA
| Strand | log fluorescence [z-score] |
| --- | --- |
| CATCGTAAGCAAAAATGATTGTGCTAG | -0.247 |
| TCACGCTTCATCTCCCAGACTGTGCTA | 0.678 |
| GAAAAATCTGGAACTAACAGGTGCTAG | -0.456 |
| GACGTTATCCTACTGCTGACGTGCTAG | 0.442 |
| TACTACATATCACCTCAATCGTGCTAG | 0.364 |
| GACGGTATCGTACTGCTGACGTGCTAG | -0.0116 |
| TTAGGACTGGGACTGAGTTAGTGCTAG | -0.0708 |
| TTAGGACTGGACTAGCGGTTAGTGCTA | -0.277 |
| GACGATCTCAGTTTCGAAACGTGCTAG | 5.69 |
| GACGGACTGGGGTATCGAGACGTGCTA | -0.689 |
| TTAGAACTGAGTTACGATTAGTGCTAG | -0.0689 |
| TCAACTCTTCCTTTACTACTGTGCTAG | 0.599 |
| GACGGACTGCTACTGCTGACGTGCTAG | -0.741 |
| TTAGGTTTCTACTTTCGGTTAGTGCTA | 6.95 |

Study 4 — method: protein binding microarray; molecule type: double-stranded DNA, one strand shown; medium: in vitro; concentration: not given; reference: not given; reading: higher = stronger binding
Target: Histone acetyltransferase KAT6A, winged helix 2, GST fusion (KAT6A, Homo sapiens, UniProt Q92794, residues 85-181)
Setting: 8-mer, flanks averaged, mean of 2 arrays, mostly near background
Target sequence (chain): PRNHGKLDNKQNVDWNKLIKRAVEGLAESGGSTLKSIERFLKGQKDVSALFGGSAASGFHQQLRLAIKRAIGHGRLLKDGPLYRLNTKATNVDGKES
| Strand | E-score |
| --- | --- |
| AGTTGTAC | -0.086 |
| ATCGTAGC | -0.0825 |
| TCATGGCA | 0.078 |
| AGTGGGGC | -0.255 |
| ATGGAGTC | 0.0247 |
| ACCACCGC | -0.141 |
| AAACTGGG | 0.0141 |
| CTTACAAG | 0.0258 |
| ATCGATAC | -0.135 |
| ATAGCACC | -0.0694 |
| GAGATTGC | -0.0506 |
| CAGTTATC | -0.186 |
| GGAACCCA | 0.0364 |
| AAGTTTGT | 0.0657 |
| ACTCTCCC | 0.00778 |
| CAGAGGGA | 0.0302 |
| CGTCTAGC | 0.115 |
| AACTAACA | -0.0312 |
| CTTTGTCA | 0.0757 |
| AGTCTTAT | -0.206 |
| AATGCAAG | 0.0745 |
| CAAATCTG | -0.0162 |
| TATCCATA | 0.0247 |
| AACTGTAT | -0.0357 |
| ACTATTTG | -0.0905 |

Study 5 — method: aptamer microarray, sandwich; molecule type: DNA with 2'F-ANA; medium: in vitro; concentration: 200 nM; with: Cy3 exosite-II aptamer, 400 nM; reading: higher = stronger binding; strand: GGTTGGTGTGGTTGG
Target: Prothrombin, mature alpha-thrombin (F2, Homo sapiens, UniProt P00734)
Setting: whole 15-mer aptamer, many near background
| Modification | mean fluorescence intensity [a.u.] |
| --- | --- |
| 2'F-ANA at 1 3 7 14 15 | 136 |
| 2'F-ANA at 3 4 6 7 8 12 | 1030 |
| 2'F-ANA at 2 3 6 8 10 13 14 | 256 |
| 2'F-ANA at 1 2 4 9 12 13 15 | 168 |
| 2'F-ANA at 1 6 9 14 | 53.6 |
| 2'F-ANA at 3 5 6 7 8 13 | 105 |
| 2'F-ANA at 1 5 6 8 9 11 14 15 | 48.6 |
| 2'F-ANA at 3 7 8 13 14 | 713 |
| 2'F-ANA at 1 3 5 6 8 9 11 15 | 60.2 |
| 2'F-ANA at 1 3 4 5 8 9 10 11 12 14 15 | 47.7 |
| 2'F-ANA at 6 8 9 10 12 15 | 179 |
| 2'F-ANA at 1 7 14 15 | 59.4 |
| 2'F-ANA at 1 3 6 10 14 | 63.9 |
| 2'F-ANA at 2 3 4 9 10 11 13 15 | 256 |
| 2'F-ANA at 1 2 3 4 6 10 12 13 | 69.7 |
| 2'F-ANA at 3 4 6 9 10 11 12 15 | 253 |
| 2'F-ANA at 5 8 10 11 14 15 | 47.5 |
| 2'F-ANA at 3 4 5 6 8 9 13 14 15 | 49.9 |
| 2'F-ANA at 2 6 7 8 9 10 11 | 103 |
| 2'F-ANA at 1 2 3 5 7 9 10 11 12 | 52.8 |
| 2'F-ANA at 2 3 4 5 7 8 9 10 11 13 14 15 | 48.4 |
| 2'F-ANA at 1 3 4 5 7 8 12 14 15 | 134 |
| 2'F-ANA at 1 2 4 5 6 7 9 11 13 | 51.1 |

A few entries again (study 4):
| Strand | E-score |
| --- | --- |
| AGTTGTAC | -0.086 |
| ATCGTAGC | -0.0825 |
| TCATGGCA | 0.078 |
| AGTGGGGC | -0.255 |
| ATGGAGTC | 0.0247 |
| ACCACCGC | -0.141 |
| AAACTGGG | 0.0141 |
| CTTACAAG | 0.0258 |
| ATCGATAC | -0.135 |
| ATAGCACC | -0.0694 |
| GAGATTGC | -0.0506 |
| CAGTTATC | -0.186 |
| GGAACCCA | 0.0364 |
